# Experimental data of several laboratories.
# Protocols differ between the studies behind these lines. Values joined by “and” are separate records of one study, mostly repeats; a detail may differ. ± marks the error that the study gave.
SMILES,tested on,test,system,setting,scale,quantity,result
Cn1ncc2cc(-c3cncc(Cl)c3N3CCC4(CCNC4=O)CC3)ccc21,LS174T,"gene expression, microarray, refers to: G0S2 mRNA",,"concentration not given, 24 h",baseline: untreated cells,log2 fold change,2.12
COC1CN([C@H]2CC[C@H]([C@@]3(C)Oc4c(Cl)cc(C(=O)NCc5c(SC)cc(C)[nH]c5=O)c(C)c4O3)CC2)C1,,"RNA-seq, refers to: TRPC1","human, whole blood","dose not given, 24 h",baseline: pretreatment baseline,log2 fold change,1.48
C=C1C(=O)OC2C1CCC(C)(O)C13C=CC(C)(C21)C1(C3)C(=O)OC2C3C(C)C(=O)CC3C(=C)CC(OC(C)=O)C21 (centres unmarked),AML12,,,"concentration not given, concentration-dependent, together with: palmitate/oleate",,total cholesterol content,decreased
CC(C)c1ccc(N(C)c2ccc3c(c2)OCC[C@H]3CNc2cnccc2C(=O)O)cc1,NCI-H1573,"cell growth or viability, ATP luminescence",,7 days,,IC50,≥ 10 µM
CCN(CC)CCNC(=S)Nc1ccc2nc(N3CCN(CC)CC3)cc(C)c2c1,U2OS SSA-GFP reporter,"single-strand annealing, flow cytometry",,15 µM,,GFP-positive cells,4.94%
O=C(N1CCCC1)n1cc(-c2ccc(-c3ccccc3)cc2)nn1,mouse T cells,"N-terminal labelling proteomics, refers to: UQCRH N-terminal peptides",,"0.001 µM, 6 h",baseline: DMSO,SILAC ratio,1.22
COC(=O)C1=C(C)Oc2cc(OC)ccc2C1C(C(C)=O)C(=O)OC (centres unmarked),3T3-L1,"cell growth or viability, MTT",,72 h,,IC20,101 µg/mL
CCCCCCC(=O)[O][Pt]([NH2])([NH2])([Cl])([Cl])[O]C(=O)CCC(C)C1CCC2C3CCC4CC(O)CCC4(C)C3CCC12C (centres unmarked),PC-3,Western blot,,"concentration not given, 48 h",baseline: untreated,γ-H2AX protein level,increased
CCc1c(C)c2ccc(OC(C)C)c(C)c2oc1=O,PC-3,"cell growth or viability, MTT",,125 µg/mL,,viability,5.5%
COc1cccc(O)c1C(=O)/C=C/c1ccc2cc(N3CCCC3)ccc2c1,HK-2,"refers to: TNF-α, IL-1β, IL-6",,"concentration not given, together with: cisplatin",,inflammatory cytokine secretion,decreased
Cc1cnc(Nc2ccc(C3CCN(C)CC3)c(F)c2)nc1Nc1ccc(Cl)c(NS(=O)(=O)C(C)(C)C)c1,MM1.S,refers to: ULK3,,"3 µM, 6 h",baseline: vehicle,protein reduction,~61%
COc1ccccc1/C=C/CN1CCCC(CCC(=O)NCc2ccccc2F)C1 (centres unmarked),Trypanosoma cruzi,"reporter mRNA translation, inhibitor, refers to: Renilla luciferase mRNA",cell-free extract,"concentration not given, test 1",baseline: positive over negative control,translation activity,106% and 117%
COc1ccccc1-c1ccncc1C(=O)Nc1nnc(OCc2ccc(Cl)cc2)s1,DLD-1 parental,,,"0.125 µM, mean of replicates",,colony count,66.5 and 76.5 and 79.5
O=C(C[Se]C(=O)c1ccc2ccccc2c1)Nc1cccc(C(F)(F)F)c1,NCI60 CNS cancer panel,five-dose screen,,,,GI50,1.78 µM
COc1ccc(N(c2ccccc2)S(=O)(=O)C2CC3OC2C(c2ccc(O)cc2)=C3c2ccc(O)cc2)cc1 (centres unmarked),"MCF7 3xERE-luc, steroid-deprived","ERE luciferase reporter, agonist",,,baseline: vehicle,Emax,-6.8%
CNS(=O)(=O)Nc1nccc(Cc2c(C)c3ccc(Oc4ncccc4F)cc3oc2=O)c1F,SK-N-DZ,"cell viability, CellTiter-Glo",,7 days,,IC50,> 1 µM
COc1cc(N2CCN(C(=O)C3CCCN3)CC2)ccc1Nc1ncc(Cl)c(Nc2ccccc2P(C)(C)=O)n1 (centres unmarked),Ba/F3 EML4-ALK,flow cytometry,,"concentration not given, 24 h",,late apoptotic cells,16.5% and 17.7% and 16.7%
C=CC(=O)N1[C@H](c2ccc3c(c2)OCO3)c2[nH]c3ccccc3c2C[C@@H]1C(=O)NC,rat DRG neurons,,,"0.3704 µM, 48 h, together with: vincristine 40 nM",,neuron degeneration,45.7% and 41.8%
COC(=O)c1cc(NC2=NC(=O)C(=Cc3ccc(N(C)C)cc3)S2)ccc1OC(C)=O,MCF7,"GC-MS, refers to: Glyceric acid",,1 µM,baseline: DMSO,metabolite level,0.36 fold change
[BH3-][P+]1(c2ccccc2)CCCCC1,PC-3,ELISA,,"concentration not given, at IC50",baseline: untreated,IL-6 reduction,47.6%
N#Cc1cccc(/C=C/C(=O)c2ccc(O)cc2)c1,U-87 MG,refers to: METTL12,,concentration not given,baseline: untreated,fold change,0.008
O=CCNCCOn1c(=O)n(OCCNCCO)c(=O)n(OCCNCCOn2c(=O)n(OCCNCCO)c(=O)n(OCCNCCO)c2=O)c1=O,A549,"cell growth or viability, MTT",,"12.5 µg/mL, 72 h",,viability,54.9%
CCCCN1C(=O)c2cccc3c(NCCCN4CCOCC4)ccc(c23)C1=O,BHK-21,"confocal microscopy, refers to: lysosome colocalisation",,"0.2 µM, together with: 0.3 µM LysoTracker Deep Red",,Pearson's correlation coefficient,0.89 ± 0.04
Cc1cc(NC2CCN(C)CC2)ccc1-c1cc2c(N3CCC[C@H](C(=O)N[C@H](C)c4ccccc4)C3)ncnc2[nH]1,KARPAS-299,"cell growth or viability, MTT",,"0.0016 µg/mL, 72 h",,inhibition,6.97%
CN1CCCNC(=O)c2cccc(c2)C(=O)NCCCN(C)CCCNc2cccc3c2C(=O)c2cccc(c2C3=O)NCCC1,SAS,"RNA-Seq, refers to: PAQR6 mRNA",,"1 µM, 6 h",baseline: untreated cells,log2 fold change,3.68
Cc1ccc(-n2cc(CSc3nc4ccccc4n3Cc3cn(-c4ccc(C)cc4)nn3)nn2)cc1,MDA-MB-231,MTT,,250 ppm,,viability,7.39%
CN(C)c1ccc(-n2cc(COC(=O)[C@@]3(C)C=C(C(=O)OC(C)(C)C)C(=O)CC3)nn2)cc1,HeLa,quantitative western blot,,"concentration not given, 4 (unit not given), together with: EGF",,pRSK/tubulin ratio,0.171
Nc1ncc(-c2cc(-c3cnn(CC(F)(F)F)c3)ncc2F)nc1C(=O)NC1CNCC(F)C1 (centres unmarked),CAMK4,KINOMEscan,,1 µM,baseline: DMSO control,remaining binding,98%
COc1cc([C@@H]2O[C@@H](c3cc(OC)c(O[C@@H]4O[C@H](CO)[C@@H](O)[C@H](O)[C@H]4O)c(OC)c3)[C@H](CO)[C@H]2CO)cc(OC)c1O,3T3-L1,"lipid accumulation, Oil Red O staining",,"5 µM, 48 h, early differentiation",,inhibition,43.4 ± 2.48%
CCN(CC)CC(=O)Nc1cccc(-n2cc(-c3ccc4ccc(-c5cn(-c6cccc(NC(=O)CN(CC)CC)c6)nn5)cc4c3)nn2)c1,RCC4,"PCR angiogenesis array, refers to: AKT1",,"5 x IC50, 4 h, normoxia",baseline: untreated,fold regulation,-1.15
Cc1ncsc1-c1ccc(C(C)NC(=O)C2CC(O)CN2C(=O)C(NC(=O)CCCCCCCCCCN2CCCC(Nc3ncc(Cl)c(Nc4ccccc4S(=O)(=O)C(C)C)n3)C2)C(C)(C)C)cc1 (centres unmarked),22Rv1,"RNA-seq, refers to: TULP3 mRNA",,concentration not given,baseline: DMSO,log2 fold change,-1.29
C[C@@H](Nc1nc2c(cnn2C(C)(C)C)c(=O)n1Cc1cccc(F)c1)c1ccc(Cl)cc1,BV-2,"refers to: Il-1β, Il-6, Tnf-α",,"concentration not given, together with: LPS",,mRNA level,decreased
CCOc1cncc(-c2ccc(NC(=O)C3(c4ccnc(NS(=O)(=O)C5CC5)n4)CCOCC3)nc2)n1,lung cancer,"cell viability, CellTiter-Glo",DMSO 0.1%,"72 h, line code 623",,IC50,10 µM
CCN(C(=O)c1cc(F)ccc1Oc1nncnc1N1CCC2(C1)CN([C@H](CCCN(C)CCOC)C(C)C)C2)C(C)C,Kasumi 1,cell growth or viability,,72 h,,GI50,> 10 µM
C=CC(=O)Nc1cccc(Cn2ncc3cnc(Nc4cnn(CCOC)c4)nc32)c1,human SGK,KINOMEscan,,100 nM,baseline: control,binding,75%
CO[C@@H]1[C@@H](OC(N)=O)[C@@H](O)[C@H](Oc2ccc3c(O)c(NC(=O)c4ccc(O)c(CC=C(C)C)c4)c(=O)oc3c2C)OC1(C)C,HCT-116 BRCA2-/-,,,"200 µM, replicate 1",,colony count,0.55
CCOC(=O)C1CCCN(Cc2ccc(-c3ccccc3)cc2)C1 (centres unmarked),Trypanosoma cruzi,"reporter mRNA translation, inhibitor, refers to: Renilla luciferase mRNA",cell-free extract,"concentration not given, test 1",baseline: positive over negative control,translation activity,113% and 136%
Cc1cc(NC(=O)c2cccc(N)c2)ccc1Nc1nccc(-c2cccnc2)n1,HEK293 AP1 reporter cells,"AP-1 reporter gene, inhibitor",,"1 µM, 6 h, unit not given, together with: PMA",baseline: PMA alone,reporter activity,0.974

# A few entries again:
SMILES,tested on,test,system,setting,scale,quantity,result
COc1ccc(N(c2ccccc2)S(=O)(=O)C2CC3OC2C(c2ccc(O)cc2)=C3c2ccc(O)cc2)cc1 (centres unmarked),"MCF7 3xERE-luc, steroid-deprived","ERE luciferase reporter, agonist",,,baseline: vehicle,Emax,-6.8%
CNS(=O)(=O)Nc1nccc(Cc2c(C)c3ccc(Oc4ncccc4F)cc3oc2=O)c1F,SK-N-DZ,"cell viability, CellTiter-Glo",,7 days,,IC50,> 1 µM
COc1cc(N2CCN(C(=O)C3CCCN3)CC2)ccc1Nc1ncc(Cl)c(Nc2ccccc2P(C)(C)=O)n1 (centres unmarked),Ba/F3 EML4-ALK,flow cytometry,,"concentration not given, 24 h",,late apoptotic cells,16.5% and 17.7% and 16.7%
